# Published values from different studies.
# Each line is one published result; not all experiments were run side by side.
# Organism: Streptococcus pneumoniae
Structure (SMILES),test,system,conditions,MIC
c1ccc(CN2CCOCCOCCN(CCCCCCCCCCN3CCOCCOCCN(CCCCCCCCCCN4CCOCCOCCN(Cc5ccccc5)CCOCCOCC4)CCOCCOCC3)CCOCCOCC2)cc1,,R:Levo,,6 µM
Oc1c(Br)cc(Br)c2nc3cc(C(F)(F)F)ccc3nc12,"microbial growth, broth dilution",6303,,0.08 µM
COC1CCN(Cc2cc(N(C)C)c3c(c2O)C(=O)C2=C(O)[C@]4(O)C(=O)C(C(N)=O)=C(O)[C@@H](N(C)C)[C@@H]4C[C@@H]2C3)CC1,"microbial growth, broth dilution",,,< 0.06 µg/mL
CC(C=CC(O)=C1C(=O)CNC1=O)=CC(C)C1OC2(C)OC(C(=O)C(O)C2(C)O)C1C (stereo not shown),,ATCC 49619,,> 100 µM
Cc1csc(NCc2cc(N(C)C)c3c(c2O)C(=O)C2=C(O)[C@]4(O)C(=O)C(C(N)=O)=C(O)[C@@H](N(C)C)[C@@H]4C[C@@H]2C3)n1,"microbial growth, broth dilution",,,4 µg/mL
c1ccc(CN2CCOCCOCCN(CCCCCCCCCCCCCCN3CCOCCOCCN(CCCCCCCCCCCCCCN4CCOCCOCCN(Cc5ccccc5)CCOCCOCC4)CCOCCOCC3)CCOCCOCC2)cc1,,R:Levo,,6 µM
Oc1c(Br)cc(Br)c2nc3cc(Br)ccc3nc12,"microbial growth, broth dilution",6303,,0.39 µM
CC[C@H](C)[C@H](N)C1=N[C@H](C(=O)N[C@@H](CC(C)C)C(=O)N[C@H](CCC(=O)O)C(=O)N[C@H](C(=O)N[C@H]2CCCCNC(=O)[C@H](CC(N)=O)NC(=O)[C@@H](CC(=O)O)NC(=O)[C@H](Cc3c[nH]cn3)NC(=O)[C@@H](Cc3ccccc3)NC(=O)[C@H]([C@@H](C)CC)NC(=O)[C@@H](CCCN)NC2=O)[C@@H](C)CC)CS1,,"153, TSB with lysed horse blood","24 h, 37 °C, together with: ZnSO4",2 µg/mL
Oc1c(Br)c(Cl)c(Br)c2nc3c(C(F)(F)F)cc(C(F)(F)F)cc3nc12,"microbial growth, broth dilution",6303,,1.56 µM
C=CCNCc1cc(N(C)C)c2c(c1O)C(=O)C1=C(O)[C@]3(O)C(=O)C(C(N)=O)=C(O)[C@@H](N(C)C)[C@@H]3C[C@@H]1C2,,"ATCC 700905, Tet M ribosome protection",,0.5 µg/mL
CC(/C=C/C(O)=C1/C(=O)CNC1=O)=C\[C@@H](C)[C@H]1O[C@@]2(C)O[C@H](C[C@@H]3O[C@@]32CO)[C@@H]1C,,ATCC 49619,,25 µM
CN(C)c1cc(CN2CCc3ccccc3C2)c(O)c2c1C[C@H]1C[C@H]3[C@H](N(C)C)C(O)=C(C(N)=O)C(=O)[C@@]3(O)C(O)=C1C2=O,,157E,50% mouse serum,4 µg/mL
Oc1c(Br)cc(Br)c2nc3cc(SC(F)(F)F)ccc3nc12,"microbial growth, broth dilution",6303,,0.08 µM

# A few entries again:
Structure (SMILES),test,system,conditions,MIC
COC1CCN(Cc2cc(N(C)C)c3c(c2O)C(=O)C2=C(O)[C@]4(O)C(=O)C(C(N)=O)=C(O)[C@@H](N(C)C)[C@@H]4C[C@@H]2C3)CC1,"microbial growth, broth dilution",,,< 0.06 µg/mL
CC(C=CC(O)=C1C(=O)CNC1=O)=CC(C)C1OC2(C)OC(C(=O)C(O)C2(C)O)C1C (stereo not shown),,ATCC 49619,,> 100 µM
